Results from different studies.
A part holds a random share of what one study measured. Substitutions count along the parent as printed.

Set 1
Target: vanadate, free oxyanion
Method: microfluidic competitive inhibition
Sample: in vitro, cell-free expressed
Tested at: not given
Notes: derived from inhibition constants, unchanged parent 676 nM
Direction: lower = stronger binding
Endpoint: oxyanion analog dissociation constant
Starting sequence: PafA, mature enzyme, eGFP fusion (Elizabethkingia meningoseptica, UniProt Q9KJX5); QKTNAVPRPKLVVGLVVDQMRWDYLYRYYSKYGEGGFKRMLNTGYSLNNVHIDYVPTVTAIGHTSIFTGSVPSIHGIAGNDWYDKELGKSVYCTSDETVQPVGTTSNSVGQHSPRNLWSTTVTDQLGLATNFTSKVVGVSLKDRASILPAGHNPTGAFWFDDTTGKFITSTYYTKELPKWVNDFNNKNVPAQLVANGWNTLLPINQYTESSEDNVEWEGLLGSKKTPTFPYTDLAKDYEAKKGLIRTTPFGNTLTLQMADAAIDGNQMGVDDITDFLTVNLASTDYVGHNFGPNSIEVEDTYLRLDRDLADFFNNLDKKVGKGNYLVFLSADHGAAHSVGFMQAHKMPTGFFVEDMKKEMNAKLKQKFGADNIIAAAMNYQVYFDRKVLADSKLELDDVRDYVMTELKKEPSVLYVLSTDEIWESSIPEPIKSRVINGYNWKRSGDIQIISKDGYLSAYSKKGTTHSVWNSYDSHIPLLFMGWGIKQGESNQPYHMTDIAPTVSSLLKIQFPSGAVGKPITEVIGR
V50G: 601 nM
I74V: 699 nM
F67G: 359 nM
K319G: 816 nM
V320A: 519 nM
F511G: 703 nM
T502V: 1710 nM
S490G: 723 nM

Set 2
Target: 5-hydroxytryptamine receptor 2C (HTR2C, Homo sapiens, UniProt P28335)
Chain of UniProt P28335 (whole entry, looked up): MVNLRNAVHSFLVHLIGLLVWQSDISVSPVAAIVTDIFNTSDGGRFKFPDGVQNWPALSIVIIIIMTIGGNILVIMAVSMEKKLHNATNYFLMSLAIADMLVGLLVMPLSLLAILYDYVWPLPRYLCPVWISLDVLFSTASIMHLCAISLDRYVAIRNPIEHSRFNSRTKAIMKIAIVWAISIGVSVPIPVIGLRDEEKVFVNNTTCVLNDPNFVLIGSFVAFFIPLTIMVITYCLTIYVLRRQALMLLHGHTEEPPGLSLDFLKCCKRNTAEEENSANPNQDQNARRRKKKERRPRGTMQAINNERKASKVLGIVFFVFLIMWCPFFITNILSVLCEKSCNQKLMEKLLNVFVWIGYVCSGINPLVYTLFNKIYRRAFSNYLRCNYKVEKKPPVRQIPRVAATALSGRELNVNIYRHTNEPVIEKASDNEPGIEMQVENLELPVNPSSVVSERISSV
Read-out: ligand displacement
Tested at: 10 µM
Endpoint: inhibition
CC(=O)N1CCC(c2ccc(C(=O)NC3=NCCN3)cc2C(F)(F)F)CC1: -2.86%
N#CC1(c2ccccn2)CCN(Cc2cc(C(=O)N3CCCC3)c(=O)n3ccccc23)CC1: -2.49%
Cc1cc(Nc2nccc(C)n2)cc(-c2cnc([C@@]3(O)CC[C@H](C(=O)O)C(C)(C)C3)s2)c1: 3.02%
CNC(=N)NCCC[C@H](NC(=O)[C@H](CC(C)C)NC(=O)NNC(=O)[C@H](Cc1ccccc1)NC(=O)[C@H](CO)NC(=O)[C@H](CC(N)=O)NC(=O)[C@@H](Cc1ccncc1)NC(=O)[C@H](N)Cc1ccc(O)cc1)C(=O)N[C@@H](Cc1ccccc1)C(N)=O: 12.8%
Nc1nc(NCc2ccccc2)nc(-c2ccccc2CO)n1: 9.32%
C[C@@H]1CN(c2cc(-c3n[nH]c4ccc(OC5(C)CC5)cc34)ncn2)C[C@H](C)O1: 7.65%
CS(=O)(=O)c1cc(C2(NC(=O)c3cncc4c3cnn4-c3ccc(F)cc3)CC2)ccn1: -14.7%
CC1=C(C#N)C(c2ccc3c(c2)c(NC(=O)c2ccccc2C)nn3C)C(C#N)=C(C)N1: 22.5%
COCCOc1nc(-c2ccc(Cl)nc2)nc2c1CN(C(=O)c1ncn3ccccc13)CC2: 13.3%
Cn1cncc1[C@@](O)(COc1ccc(C#N)cc1-c1ccc(OC(F)(F)F)cc1)c1ccc(C#N)cc1: 17.1%

Other studies, line by line
Tested at: concentration not given
COc1ccc(CCN)cc1OC  log2 fold change (Sarcocystis neurona; parasite growth; first screen; reference: untreated): 0.0636
COC(=O)/C=C/C(=O)OC  viability (HEK-293T/ACE2; 16 (unit not given); reference: vehicle): 103%

Some of these lines once more (other studies, line by line):
COc1ccc(CCN)cc1OC  log2 fold change (Sarcocystis neurona; parasite growth; first screen; reference: untreated): 0.0636
COC(=O)/C=C/C(=O)OC  viability (HEK-293T/ACE2; 16 (unit not given); reference: vehicle): 103%
